# Published values collected from several papers.
# A part holds a random share of what one study measured.
# UniProt P42336, sequence (whole entry, unmodified, looked up): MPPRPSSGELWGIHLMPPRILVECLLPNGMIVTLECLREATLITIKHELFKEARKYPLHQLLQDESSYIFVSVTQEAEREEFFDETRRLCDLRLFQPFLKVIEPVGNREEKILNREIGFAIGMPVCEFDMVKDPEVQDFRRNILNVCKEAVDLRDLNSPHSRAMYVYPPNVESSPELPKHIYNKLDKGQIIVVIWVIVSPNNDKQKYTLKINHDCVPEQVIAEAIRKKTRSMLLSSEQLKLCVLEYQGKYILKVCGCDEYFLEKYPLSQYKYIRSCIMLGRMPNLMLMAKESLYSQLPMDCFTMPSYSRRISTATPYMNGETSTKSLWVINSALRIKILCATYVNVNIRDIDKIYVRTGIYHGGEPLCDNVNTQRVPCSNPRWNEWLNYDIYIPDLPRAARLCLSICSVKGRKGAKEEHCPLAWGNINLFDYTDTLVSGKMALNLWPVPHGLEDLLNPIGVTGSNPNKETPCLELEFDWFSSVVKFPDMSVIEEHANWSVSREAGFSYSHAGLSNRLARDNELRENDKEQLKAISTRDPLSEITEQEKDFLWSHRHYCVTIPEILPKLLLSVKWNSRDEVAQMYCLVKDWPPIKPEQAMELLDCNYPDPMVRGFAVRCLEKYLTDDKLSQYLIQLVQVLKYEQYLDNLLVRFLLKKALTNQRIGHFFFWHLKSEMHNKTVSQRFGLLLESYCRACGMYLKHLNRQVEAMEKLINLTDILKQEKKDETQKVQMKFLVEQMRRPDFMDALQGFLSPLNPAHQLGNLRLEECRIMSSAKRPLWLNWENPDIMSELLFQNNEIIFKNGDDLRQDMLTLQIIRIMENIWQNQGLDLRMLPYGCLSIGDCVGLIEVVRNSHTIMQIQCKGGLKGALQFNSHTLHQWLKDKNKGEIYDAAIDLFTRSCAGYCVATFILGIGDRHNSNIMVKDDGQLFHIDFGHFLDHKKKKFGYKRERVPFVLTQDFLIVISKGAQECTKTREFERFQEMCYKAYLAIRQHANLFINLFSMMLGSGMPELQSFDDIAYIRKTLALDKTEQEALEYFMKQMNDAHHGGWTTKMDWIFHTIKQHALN
# UniProt Q13546, sequence (whole entry, looked up): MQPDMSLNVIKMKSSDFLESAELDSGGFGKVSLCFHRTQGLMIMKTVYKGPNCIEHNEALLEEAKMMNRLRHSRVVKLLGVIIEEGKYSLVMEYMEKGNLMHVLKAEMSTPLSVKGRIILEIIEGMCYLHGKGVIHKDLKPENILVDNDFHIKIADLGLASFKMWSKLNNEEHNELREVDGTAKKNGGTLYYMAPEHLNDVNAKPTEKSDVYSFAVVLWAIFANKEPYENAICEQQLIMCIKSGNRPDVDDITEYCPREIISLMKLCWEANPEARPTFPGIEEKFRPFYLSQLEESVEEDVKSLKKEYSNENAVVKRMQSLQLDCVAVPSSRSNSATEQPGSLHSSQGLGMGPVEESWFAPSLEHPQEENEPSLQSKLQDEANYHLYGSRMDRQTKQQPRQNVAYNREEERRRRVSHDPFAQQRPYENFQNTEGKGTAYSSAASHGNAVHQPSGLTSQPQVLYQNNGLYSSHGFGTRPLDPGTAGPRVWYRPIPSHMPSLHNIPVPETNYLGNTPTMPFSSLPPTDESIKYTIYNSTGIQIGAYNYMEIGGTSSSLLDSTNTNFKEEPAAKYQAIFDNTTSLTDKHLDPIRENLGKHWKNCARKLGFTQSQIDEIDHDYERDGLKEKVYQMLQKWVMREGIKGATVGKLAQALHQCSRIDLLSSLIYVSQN
# UniProt Q15418, sequence (whole entry, looked up): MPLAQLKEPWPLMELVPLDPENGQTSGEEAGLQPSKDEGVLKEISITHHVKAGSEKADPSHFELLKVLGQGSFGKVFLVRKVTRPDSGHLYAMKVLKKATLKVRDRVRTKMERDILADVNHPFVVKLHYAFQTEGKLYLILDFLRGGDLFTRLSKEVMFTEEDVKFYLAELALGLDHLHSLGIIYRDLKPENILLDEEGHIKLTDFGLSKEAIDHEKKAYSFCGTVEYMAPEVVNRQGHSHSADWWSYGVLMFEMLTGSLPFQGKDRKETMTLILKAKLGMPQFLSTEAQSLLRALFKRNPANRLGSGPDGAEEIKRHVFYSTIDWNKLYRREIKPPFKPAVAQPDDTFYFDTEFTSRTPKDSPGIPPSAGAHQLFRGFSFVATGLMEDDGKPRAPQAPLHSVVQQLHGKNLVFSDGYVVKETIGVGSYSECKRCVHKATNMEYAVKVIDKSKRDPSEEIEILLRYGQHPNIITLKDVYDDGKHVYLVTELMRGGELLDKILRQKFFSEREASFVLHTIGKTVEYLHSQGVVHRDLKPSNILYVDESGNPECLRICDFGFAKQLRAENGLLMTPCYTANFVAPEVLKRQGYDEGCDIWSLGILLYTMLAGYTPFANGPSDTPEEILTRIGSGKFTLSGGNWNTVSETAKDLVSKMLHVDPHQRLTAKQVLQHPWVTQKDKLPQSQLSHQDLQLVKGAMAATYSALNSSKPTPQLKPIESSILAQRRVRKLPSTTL
# UniProt Q14289, sequence (whole entry, looked up): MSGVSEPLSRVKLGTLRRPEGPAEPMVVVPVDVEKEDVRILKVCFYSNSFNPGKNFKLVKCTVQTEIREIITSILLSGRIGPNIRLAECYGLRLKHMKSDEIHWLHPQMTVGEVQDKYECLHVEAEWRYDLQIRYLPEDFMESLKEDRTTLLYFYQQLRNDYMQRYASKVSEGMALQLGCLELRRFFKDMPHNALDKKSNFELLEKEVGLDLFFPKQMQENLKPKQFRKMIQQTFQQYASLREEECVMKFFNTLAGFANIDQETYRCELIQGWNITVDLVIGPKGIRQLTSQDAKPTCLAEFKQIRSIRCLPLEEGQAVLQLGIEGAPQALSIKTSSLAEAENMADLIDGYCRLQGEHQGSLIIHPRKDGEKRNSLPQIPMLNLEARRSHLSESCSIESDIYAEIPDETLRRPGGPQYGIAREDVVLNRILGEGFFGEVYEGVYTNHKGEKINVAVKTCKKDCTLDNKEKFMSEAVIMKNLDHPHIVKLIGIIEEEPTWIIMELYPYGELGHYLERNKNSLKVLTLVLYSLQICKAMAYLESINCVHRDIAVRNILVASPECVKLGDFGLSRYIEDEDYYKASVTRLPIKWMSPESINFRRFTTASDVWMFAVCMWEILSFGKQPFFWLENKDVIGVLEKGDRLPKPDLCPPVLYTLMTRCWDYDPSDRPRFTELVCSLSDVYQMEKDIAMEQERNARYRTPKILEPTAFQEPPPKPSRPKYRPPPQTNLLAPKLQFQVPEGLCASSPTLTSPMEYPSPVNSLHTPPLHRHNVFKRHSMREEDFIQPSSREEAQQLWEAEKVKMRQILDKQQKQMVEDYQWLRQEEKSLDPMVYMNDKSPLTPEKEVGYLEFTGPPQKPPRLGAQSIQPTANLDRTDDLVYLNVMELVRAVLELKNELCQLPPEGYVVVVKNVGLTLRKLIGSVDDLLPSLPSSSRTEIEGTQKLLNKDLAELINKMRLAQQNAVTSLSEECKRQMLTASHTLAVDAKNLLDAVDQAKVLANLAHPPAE
# UniProt Q9H1R3, sequence (whole entry, looked up): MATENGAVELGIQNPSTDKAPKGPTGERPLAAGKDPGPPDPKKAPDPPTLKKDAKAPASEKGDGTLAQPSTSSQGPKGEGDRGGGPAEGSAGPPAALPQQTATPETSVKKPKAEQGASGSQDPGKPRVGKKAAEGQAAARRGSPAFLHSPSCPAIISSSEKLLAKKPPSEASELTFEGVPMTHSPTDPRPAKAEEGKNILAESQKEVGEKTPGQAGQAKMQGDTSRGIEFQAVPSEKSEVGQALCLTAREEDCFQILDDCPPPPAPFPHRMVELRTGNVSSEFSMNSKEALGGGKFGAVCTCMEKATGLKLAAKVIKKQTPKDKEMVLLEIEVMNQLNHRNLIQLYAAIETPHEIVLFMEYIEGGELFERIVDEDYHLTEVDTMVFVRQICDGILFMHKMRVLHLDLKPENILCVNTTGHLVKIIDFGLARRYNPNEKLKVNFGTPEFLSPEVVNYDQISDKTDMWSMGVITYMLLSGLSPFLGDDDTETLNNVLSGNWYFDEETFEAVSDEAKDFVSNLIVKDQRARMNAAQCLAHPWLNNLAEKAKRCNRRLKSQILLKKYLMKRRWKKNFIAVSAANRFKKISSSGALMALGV
# UniProt Q9HBY8, sequence (whole entry, looked up): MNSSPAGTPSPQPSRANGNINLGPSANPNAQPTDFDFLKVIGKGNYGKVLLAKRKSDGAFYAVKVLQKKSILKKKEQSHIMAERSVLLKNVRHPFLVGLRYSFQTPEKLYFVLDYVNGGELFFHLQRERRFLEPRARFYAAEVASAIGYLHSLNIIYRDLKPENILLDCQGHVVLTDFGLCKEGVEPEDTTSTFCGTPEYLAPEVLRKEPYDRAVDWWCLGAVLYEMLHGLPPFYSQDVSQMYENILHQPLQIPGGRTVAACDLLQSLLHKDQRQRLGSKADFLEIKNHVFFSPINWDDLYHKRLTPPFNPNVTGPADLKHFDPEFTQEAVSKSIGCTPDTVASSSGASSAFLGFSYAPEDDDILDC

# Set 1
# Cell line: A-375
# Tested at: 100 µM
# Time: 18 h
Structure (SMILES),viability [%]
O=c1[nH]c(=O)n([C@H]2C[C@H](O)[C@@H](CO)O2)cc1C(F)(F)F,64.6
Nc1c2c(nc3ccccc13)CCCC2,55.4
N[C@@H](Cc1cc(I)c(Oc2ccc(O)c(I)c2)c(I)c1)C(=O)O,64
CCC1(C)CC(=O)NC1=O (stereo not shown),95.2
C[C@]12CCC3=C4CCC(=O)C=C4CC[C@H]3[C@@H]1CC[C@@]2(O)CC#N,95.9
O=c1ccn([C@@H]2O[C@H](CO)[C@@H](O)[C@H]2O)c(=O)[nH]1,111
COc1ccc(-c2cc(=S)ss2)cc1,89.2
CO[C@H]1C(=O)[C@]2(C)[C@@H](OC)C[C@H]3OC[C@@]3(OC(C)=O)[C@H]2[C@H](OC(=O)c2ccccc2)[C@]2(O)C[C@H](OC(=O)[C@H](O)[C@@H](NC(=O)OC(C)(C)C)c3ccccc3)C(C)=C1C2(C)C,54.4
CC(C)(C)C(=O)C(Oc1ccc(Cl)cc1)n1ccnc1 (stereo not shown),22.1

# Set 2
# SMILES: CCCCN(CCCC)C(=O)CN1C[C@@H](c2cc(OC)c3c(c2)OCO3)[C@H](C(=O)O)[C@H]1CC(C)(C)CCC
# Effect on: cell-free assay
# Technique: competition with immobilised ligand
# Tested at: 1 µM
target,remaining binding
"SLK (Homo sapiens, UniProt Q9H2G2)",92.5%
"PIK3CA (Homo sapiens, UniProt P42336, I800L)",100%
"PIK3CA (Homo sapiens, UniProt P42336, M1043I)",100%
"MYLK2 (Homo sapiens, UniProt Q9H1R3)",100%
"PTK2B (Homo sapiens, UniProt Q14289)",93.4%
"NIM1K (Homo sapiens, UniProt Q8IY84)",100%
"ABL2 (Homo sapiens, UniProt P42684)",100%
"EGFR (Homo sapiens, UniProt P00533, G719C)",100%
"Ribosomal protein S6 kinase alpha-1, C-terminal kinase domain (RPS6KA1, Homo sapiens, UniProt Q15418)",75.7%
"SGK2 (Homo sapiens, UniProt Q9HBY8)",78.5%
"CDK17 (Homo sapiens, UniProt Q00537)",93.3%
"MAPK11 (Homo sapiens, UniProt Q15759)",99.2%
"MAP3K20 (Homo sapiens, UniProt Q9NYL2)",91.3%
"RET (Homo sapiens, UniProt P07949, V804M)",82.4%
"PIK3C2G (Homo sapiens, UniProt O75747)",80.3%
"TAOK1 (Homo sapiens, UniProt Q7L7X3)",97.4%

# Set 3
# SMILES: CC(C)S(=O)(=O)c1ccc2nccc(Nc3ccc4sc(C5CCCC5)nc4c3)c2c1.Cl
# Effect on: kinase activity
# Action: inhibitor
# Tested at: 1 µM
target,remaining activity [%]
"AKT2 (Homo sapiens, UniProt P31751)",105
"RIPK1 (Homo sapiens, UniProt Q13546)",83
"ULK2 (Homo sapiens, UniProt Q8IYT8)",98
"NEK5 (Homo sapiens, UniProt Q6P3R8)",88
"RPS6KA4 (Homo sapiens, UniProt O75676)",90
"OXSR1 (Homo sapiens, UniProt O95747)",104
"PRKACA (Homo sapiens, UniProt P17612)",115
"DYRK3 (Homo sapiens, UniProt O43781)",88
"STK33 (Homo sapiens, UniProt Q9BYT3)",100

# Set 4
# Target: NUAK family SNF1-like kinase 2 (NUAK2, Homo sapiens, UniProt Q9H093)
# UniProt Q9H093, sequence (whole entry, looked up): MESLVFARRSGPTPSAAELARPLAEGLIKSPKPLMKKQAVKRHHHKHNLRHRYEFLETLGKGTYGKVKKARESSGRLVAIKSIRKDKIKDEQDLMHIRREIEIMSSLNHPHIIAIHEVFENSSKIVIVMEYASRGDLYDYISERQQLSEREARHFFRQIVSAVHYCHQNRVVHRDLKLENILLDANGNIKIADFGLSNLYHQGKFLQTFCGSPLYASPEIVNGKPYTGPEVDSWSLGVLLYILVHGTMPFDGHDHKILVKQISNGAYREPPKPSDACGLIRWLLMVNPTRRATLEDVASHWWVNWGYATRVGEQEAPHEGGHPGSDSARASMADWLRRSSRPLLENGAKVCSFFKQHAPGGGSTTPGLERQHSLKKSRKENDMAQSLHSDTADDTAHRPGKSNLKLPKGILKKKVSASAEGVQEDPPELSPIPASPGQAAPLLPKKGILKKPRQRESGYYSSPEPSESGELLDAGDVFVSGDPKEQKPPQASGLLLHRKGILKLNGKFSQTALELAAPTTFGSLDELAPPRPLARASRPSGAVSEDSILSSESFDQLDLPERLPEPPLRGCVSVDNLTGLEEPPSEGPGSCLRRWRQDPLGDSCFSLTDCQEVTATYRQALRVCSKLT
# Effect on: enzyme activity
# Action: inhibitor
# Tested at: 0.5 µM
# Relative to: control
SMILES,remaining activity [%]
CNC(=O)c1cc(Oc2ccc(NC(=O)Nc3ccc(Cl)c(C(F)(F)F)c3)cc2)ccn1,101
OCC(O)CCON=C1C(c2c(O)[nH]c3ccccc23)=Nc2ccccc21 (stereo not shown),55.1
Cn1sc(=O)n(Cc2ccccc2)c1=O,97.7
NCCNc1ncc(C(N)=O)c(Nc2cccc(C(F)(F)F)c2)n1,137
CC(C)[C@H](CO)Nc1nc(Nc2cc(N)cc(Cl)c2)c2ncn(C(C)C)c2n1,81.4
Cc1ccc(Nc2nccc(N(C)c3ccc4c(C)n(C)nc4c3)n2)cc1S(N)(=O)=O,93.8
O=C(CCCc1ccc(-c2ccccc2F)cc1)Nc1ccc(O)cc1,92.9
CO[C@H]1C[C@@H]2CC[C@@H](C)[C@@](O)(O2)C(=O)C(=O)N2CCCC[C@H]2C(=O)O[C@H]([C@H](C)C[C@@H]2CC[C@@H](O)[C@H](OC)C2)CC(=O)[C@H](C)/C=C(\C)[C@@H](O)[C@@H](OC)C(=O)[C@H](C)C[C@H](C)/C=C/C=C/C=C/1C,140
Nc1ncnc2n[nH]c(Nc3ccc(F)cc3)c12,90.4
COc1cc2nccc(Oc3ccc(NC(=S)NC(=O)c4ccccc4C)cc3)c2cc1OC,106
Oc1ccc(-c2nc(-c3ccncc3)c(-c3ccc(F)cc3)[nH]2)cc1,128
COc1ccc(C(=O)Nc2sc3c(c2C(N)=O)CCCC3)cc1OC,99.5
Nc1[nH]nc2nc3ccccc3nc12,96.3
O=C1NC(=O)C(c2cn(CCCn3ccnc3)c3ccccc23)=C1Nc1ccccc1,113
COc1ccc(CNC(=O)Nc2ncc([N+](=O)[O-])s2)cc1,89.9

# For quick reference, copied from above (set 2):
target,remaining binding
"PIK3CA (Homo sapiens, UniProt P42336, M1043I)",100%
"MYLK2 (Homo sapiens, UniProt Q9H1R3)",100%
"PTK2B (Homo sapiens, UniProt Q14289)",93.4%
